Published values collected from several papers.
A part holds a random share of what one study measured.

Series 1
Target: Histone acetyltransferase KAT6A, both winged helices, GST fusion (KAT6A, Homo sapiens, UniProt Q92794, residues 1-181)
Method: protein binding microarray
Molecule type: double-stranded DNA, one strand shown
Matrix: in vitro
Concentration: not given
Notes: 8-mer, flanks averaged, mean of 2 arrays, mostly near background
Relative to: not given
Direction: higher = stronger binding
Target sequence (chain): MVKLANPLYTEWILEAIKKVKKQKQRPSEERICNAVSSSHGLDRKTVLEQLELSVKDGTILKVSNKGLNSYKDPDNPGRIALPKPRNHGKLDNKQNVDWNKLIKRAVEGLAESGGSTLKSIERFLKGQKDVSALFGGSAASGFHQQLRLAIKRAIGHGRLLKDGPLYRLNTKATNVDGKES
Strand	E-score
CACGATTA	-0.0172
ACTACAAT	0.011
CTCCGGGC	0.0913
CATGGCTA	-0.196
CGCCTCAC	0.104

Series 2
Target: Centromere-binding protein 1, full length, His-tagged (CBF1, Saccharomyces cerevisiae, UniProt P17106, residues 1-351)
UniProt P17106, sequence (whole entry, looked up): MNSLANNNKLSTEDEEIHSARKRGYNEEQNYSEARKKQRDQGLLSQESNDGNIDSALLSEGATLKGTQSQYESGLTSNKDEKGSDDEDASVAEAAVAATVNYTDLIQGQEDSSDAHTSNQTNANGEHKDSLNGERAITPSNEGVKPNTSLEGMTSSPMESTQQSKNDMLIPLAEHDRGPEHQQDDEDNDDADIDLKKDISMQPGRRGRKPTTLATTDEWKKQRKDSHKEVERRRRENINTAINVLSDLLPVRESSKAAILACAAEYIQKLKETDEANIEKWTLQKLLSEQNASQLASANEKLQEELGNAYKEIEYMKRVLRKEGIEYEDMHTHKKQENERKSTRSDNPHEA
Method: competition protein-binding microarray
Molecule type: double-stranded DNA, one strand shown
Matrix: in vitro
Concentration: 2 µM
Notes: whole 60-bp probe, lowest competitor level
Added: Pho4 competitor, 0.05 µM
Direction: higher = stronger binding
Strand	fluorescence intensity [a.u.]
TTATGACTGCGAATGTCCGTGCAATGCGGCCCAATTGTCTTGATTCGCTTGACGCTGCTG	55.2
GAGCTTCAATCCTGTCACAAATCCATTGCTTGTCTCGTCTTGATTCGCTTGACGCTGCTG	65
CTTCTGTAAATTTGCTGGGTGGGTGGACGCGCCCCGGTCTTGATTCGCTTGACGCTGCTG	87.3
TAGGACATTGTACGACGCGTGTCGGACCATGGAAAAGTCTTGATTCGCTTGACGCTGCTG	70

Series 3
Target: Sal-like protein 4, full length isoform B (SALL4, Homo sapiens, UniProt Q9UJQ4-2, residues 1-616)
Method: universal PBM
Molecule type: double-stranded DNA, one strand shown
Matrix: in vitro
Concentration: not given
Notes: 8-mer, flanks averaged, mean of replicates
Direction: higher = stronger binding
Target sequence (chain): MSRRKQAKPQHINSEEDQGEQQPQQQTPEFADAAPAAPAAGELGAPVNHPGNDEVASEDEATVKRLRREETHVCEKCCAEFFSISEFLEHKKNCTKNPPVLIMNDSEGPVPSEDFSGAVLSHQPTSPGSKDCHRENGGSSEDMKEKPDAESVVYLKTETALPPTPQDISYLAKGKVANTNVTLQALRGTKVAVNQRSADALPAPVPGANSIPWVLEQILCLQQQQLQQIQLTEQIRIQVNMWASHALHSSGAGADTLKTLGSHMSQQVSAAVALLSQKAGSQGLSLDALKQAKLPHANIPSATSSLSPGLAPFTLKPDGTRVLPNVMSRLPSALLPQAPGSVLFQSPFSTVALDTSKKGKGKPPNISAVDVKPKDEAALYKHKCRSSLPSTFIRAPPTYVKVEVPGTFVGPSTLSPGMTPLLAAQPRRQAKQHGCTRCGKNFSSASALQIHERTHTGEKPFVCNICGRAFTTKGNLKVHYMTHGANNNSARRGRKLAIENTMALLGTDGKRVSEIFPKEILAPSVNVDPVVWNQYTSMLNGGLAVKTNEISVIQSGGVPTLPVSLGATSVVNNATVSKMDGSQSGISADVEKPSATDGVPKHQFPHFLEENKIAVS
Strand	E-score
CAATCTTC	0.0579
ATGATACC	0.192
GAAGCCCC	-0.199

Mixed results
Molecule	target	assay	system	setting	scale	quantity	result
PhoQ, residues 284 288 289 292 302 303 SIHMAM	PhoP, residues 12 14 15 18 19 LHHVQ (Escherichia coli, UniProt P23836)	Sort-seq, item: YFP reporter	E. coli	PhoQ-PhoP variant library, added: 10 µM Mg2+	relative to: high Mg2+ state, higher = stronger signaling	fold induction	1.39

A few entries again (series 1):
Strand	E-score
ACTACAAT	0.011
